Measured values of several laboratories.
Every numbered part comes from another study and shows a few of its results, in no order.

Set 1 — method: RNA Bind-n-Seq; form: RNA; sample: in vitro; concentration: not given; reference: input RNA pool; reading: higher = stronger binding; measurement: bound/input enrichment
Target: RING finger protein unkempt homolog, zinc fingers 1-6, GST-SBP tag (UNK, Homo sapiens, UniProt Q9C0B0, residues 30-357)
UniProt Q9C0B0, sequence (30-357, looked up): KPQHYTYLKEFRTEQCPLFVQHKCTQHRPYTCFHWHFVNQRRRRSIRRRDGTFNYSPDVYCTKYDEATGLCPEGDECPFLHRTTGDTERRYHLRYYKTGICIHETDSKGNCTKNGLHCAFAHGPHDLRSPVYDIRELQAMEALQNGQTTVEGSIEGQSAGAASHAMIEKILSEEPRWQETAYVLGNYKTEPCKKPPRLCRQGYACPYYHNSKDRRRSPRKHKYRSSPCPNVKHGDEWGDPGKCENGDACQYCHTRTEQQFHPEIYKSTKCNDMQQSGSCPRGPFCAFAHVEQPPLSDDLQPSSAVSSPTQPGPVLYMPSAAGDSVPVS
Notes: RNA with constant flanks, human and mouse sites, ends assumed
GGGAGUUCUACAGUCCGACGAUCUACCAGGGAAUCUGGAAACCAAGGAAAAUACCAAAUCCAGAUUUCUUUGAAGACCUAGAACCUUUUAAGAUGACUCCUUUCAGUGCUAUUGGUUUGGAGCUCUGGUCCAUGACAUCCGACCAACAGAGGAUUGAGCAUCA: 0.235 ratio
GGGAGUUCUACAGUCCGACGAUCUUUUACCUGGAUAGGACUCUGUGGCUGGCCAAGUCCACCUCCUCAUCCUUUGCAUCAUUUAUAGUUCAACUUUUCCAAGUGGUUUUAAUGAAGCUCAAUUUUGAAACUUACAAAUUGAAACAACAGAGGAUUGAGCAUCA: 1.21 ratio
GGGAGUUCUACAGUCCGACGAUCGCAAGGCAGAGCCACCAGAAACGUACACCUGAUUUUCAUGACAAAUACGGUAAUGCUGUAUUAGCUAGUGGAGCCACUUUCUGUAUUGUUACAUGGACAUAUGUAGCAACACAAGUCGGACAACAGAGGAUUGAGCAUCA: 0.237 ratio
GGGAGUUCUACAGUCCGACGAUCGUUUUAAAGAAGGCACUUGAAAUUACAAAAGCAAGUCAUGUGACCCCUCAGCCAGAAGAUAGUUGGAUCCCUUUACUUAUUAAUGCCAUUGAUCAUUGCAUGAAUAGAAUCAAGGAGCUCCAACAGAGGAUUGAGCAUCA: 0.176 ratio
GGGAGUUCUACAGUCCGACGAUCAACAUUAAUGGAACCUCCUACCCUAGUCUACAGCAGAAAACCAAUGCUGUUAAGAAAUUACAUAAAUGUGAUGAAUGUGGGAAAUCCUUCAAAUAUAAUUCCCGCCUUGUUCAACAUAAACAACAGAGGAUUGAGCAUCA: 20.7 ratio
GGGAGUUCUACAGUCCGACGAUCGGAGAUAACCAGCCACUUCAUAUUUUUGACAAACUCCAUGUAUCCCCUCUUACUCAAAUAAGACUAAACCCAGUUUACAAAGCAGUGGUGUCUUCUGACAAAUCCGGGAUGAUUGAGUACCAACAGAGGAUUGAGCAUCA: 0.296 ratio
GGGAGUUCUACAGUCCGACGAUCCUCAACCAUCCAAAUGUAAUUAAAUACUAUGCAUCAUUCAUUGAGGAUAAUGAGCUGAACAUAGUUUUGGAGUUAGCAGAUGCUGGUGACCUCUCCAGAAUGAUAAAGCACUUUAAGAAACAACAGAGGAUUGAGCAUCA: 0.69 ratio
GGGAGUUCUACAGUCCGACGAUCGACCUAAUCCAGGAUGUUGAAUGGGAUUAUUGCCAUCUUACACCAUAUUUUUGUAAAAUGUAGCUUAAUCAUAAUCUCACAAUGAAGAUUUUGCAUCACUUUUGCUAUUAUCAUUCUUUUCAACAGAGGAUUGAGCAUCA: 0.143 ratio

Set 2 — method: RNA Bind-n-Seq; form: RNA; sample: in vitro; concentration: 365 nM; reference: no-protein control; reading: higher = stronger binding; measurement: RBNS enrichment (R)
Target: RNA binding protein fox-1 homolog 2, RRM domain, GST-SBP tag (RBFOX2, Homo sapiens, UniProt O43251-10, residues 100-194)
Notes: natural RNA segment, single round, ends assumed
Construct (chain): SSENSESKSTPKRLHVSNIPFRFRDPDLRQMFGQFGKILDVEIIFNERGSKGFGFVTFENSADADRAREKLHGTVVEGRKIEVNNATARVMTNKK
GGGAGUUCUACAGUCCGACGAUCAGGGAUUCUACGUGUAGCCCUGGCUGACCUAGAAUUAGCUCUGAAGACCAGGCUGACCUUGAACUUACAGAGAUCCACCUCCCUGCCUCCCGAGUGCUGGAGCUAAUGGGUGGAAUUCUCGGGUGCCAA: 0.212
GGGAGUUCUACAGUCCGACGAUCUUUUUGCUCUAAUCUCUCUGCCGAAAGUCAAAGUGAUGGGAGAAUUGGUAUACUGGUAUGACUACGUCUUAAGUCAGAUUUUUAUUUAUGAGUCUUUGAGACUAAAUUCAUGGAAUUCUCGGGUGCCAA: 0.253
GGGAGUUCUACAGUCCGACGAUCAAUUUGGGGGACAUGCUAAAUAACUAUAUAAGACAUUAAGAGAACAAAGAGUGAAAUAUUGUAAAUGCUAUUAUACUGUUAUCCAUAUUACGUUGUUUCUUAUAGAUUUUUGGAAUUCUCGGGUGCCAA: 0.764
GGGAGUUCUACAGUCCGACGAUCAGCUGGACGUAUAUAAAGGGUCCUCGUGCUUGUUCUUUGCCAGUUCCCACUAGAAAAGGCGCUCCUGUGGUGGCCACCUCUGUCUUCCUACUGAGAACUUCCUGUUCCAGUGGAAUUCUCGGGUGCCAA: 0.291
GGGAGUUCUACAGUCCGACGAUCAUGACCUGGAGUUAGGAGUGAGUUUGUGUGUUGUUGAUAGAGCAACUCAGGUAAUUUCCAUUUCUGGUUUUAUAUUCUCUGUAUCUCCUGCCUGGGUGUCACUUUCUAGAUGGAAUUCUCGGGUGCCAA: 0.59
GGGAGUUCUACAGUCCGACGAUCCCUAUAGUUCCAUCAAAUUCUUUCUUUCCCUUCUUGACAUUGUCCCCCAAACCCUCAUUUUGCAGAAACACUAGGUCUGUGGAGUAGGUUGUGAUUCUGGGGUCUCUUCAUGGAAUUCUCGGGUGCCAA: 0.763
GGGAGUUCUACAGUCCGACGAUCAAUGUGCCUUUUAAUUAGUGAUCUAGAAAGAAGUUCAGCCGAACCCACACCCCAACUCCCUCCCAAGAACUUCGGUGCCUAAAGCCUCCUGUUCCACCUCAGGUUUUCACUGGAAUUCUCGGGUGCCAA: 0.742
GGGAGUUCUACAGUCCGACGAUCACUUGGAAAAAUGUACAUGAUGUGAAACUGGGGUGCUAUGUUAAAAAUAAAUGUAUGAUAACUCAUGAUUUUGUGGUGUCCUGGUGUCAGUAUUUUCUGAUUUCUAUUUGUGGAAUUCUCGGGUGCCAA: 0.332
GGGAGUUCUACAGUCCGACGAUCCUUUUUGCCCCUCCUUCCUUAGCAAGCCCGUUUGAUUGACAGCUCUCCUGCUCUGAGUUCACUCUGUGCCUCCAUUUGCAUUUUGCUUAGUUGAUCCGGUUUCUCUGUUCUGGAAUUCUCGGGUGCCAA: 2.2

Set 3 — method: RNA Bind-n-Seq; form: RNA; sample: in vitro; concentration: 200 nM; notes: whole 134-nt RNA, ends assumed; together with: 150 mM KCl; reference: input library; reading: higher = stronger binding; measurement: log2 enrichment
Target: Ras GTPase-activating protein-binding protein 1, full length (G3BP1, Homo sapiens, UniProt Q13283)
UniProt Q13283, sequence (whole entry, looked up): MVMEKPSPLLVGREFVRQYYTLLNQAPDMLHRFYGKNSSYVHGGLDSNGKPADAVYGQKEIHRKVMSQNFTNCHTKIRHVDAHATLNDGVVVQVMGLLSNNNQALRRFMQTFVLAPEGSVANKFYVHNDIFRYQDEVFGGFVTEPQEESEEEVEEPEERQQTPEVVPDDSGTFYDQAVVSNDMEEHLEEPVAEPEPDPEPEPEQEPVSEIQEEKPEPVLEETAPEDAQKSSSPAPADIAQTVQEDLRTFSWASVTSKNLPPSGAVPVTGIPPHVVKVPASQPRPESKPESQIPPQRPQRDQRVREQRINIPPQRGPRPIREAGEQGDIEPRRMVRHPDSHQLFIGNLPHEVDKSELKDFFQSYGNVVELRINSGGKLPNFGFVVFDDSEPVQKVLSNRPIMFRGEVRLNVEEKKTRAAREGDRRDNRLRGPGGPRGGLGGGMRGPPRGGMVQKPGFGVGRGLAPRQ
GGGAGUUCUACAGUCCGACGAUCAUUUCUCAGUUGAAGGAUGCUUACACUCUUGUCCAUCUAGACCUCAAUUACUGUUUUUCAGGAAUGUCUGAUCACAGAUACGGGGAUGGUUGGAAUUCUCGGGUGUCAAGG: -1.2
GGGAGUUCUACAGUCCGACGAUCUCAAGUCCUGUGCUACACAUCGUAUGUACCGAAUCGGAAAAAGGUGGUUUUUGGAAAGUAUUAUGUUACGCCGUUCGGAUCUGCACUUCCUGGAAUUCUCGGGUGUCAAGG: -1.07
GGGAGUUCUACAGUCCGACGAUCCCUGUGCUACACAUCGUAUGUACCGAAUCGGGGUUUGGGGAAAAAGGGGUUUUUUUGGGGAAAGUAUUAUGUUACGCCGUUCGGAUCUGCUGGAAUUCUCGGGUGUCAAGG: 0.107
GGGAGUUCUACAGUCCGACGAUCCUGUGCUACACAUCGUAUGUACCGAAUCGGGGUUUUUUUGGGGAAAGGGGAAAAAAAGGGGAAAGUAUUAUGUUACGCCGUUCGGAUCUGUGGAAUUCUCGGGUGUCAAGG: -0.349
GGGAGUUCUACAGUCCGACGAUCUAGGUAUUUCUGGGAAAAGCCAGCUUCUGUUUGCACUGGUCUUCACAACUCGUUACCUGGAUCUUUUUACUUCAUUUAUUUCAUUGUAUAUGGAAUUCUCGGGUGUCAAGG: -2.43
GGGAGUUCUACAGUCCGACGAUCUGUCCCAGGGAACGCCGGUGCAGAUGUGCUUCUUGUGGGCUCAGAGGCCUUCGUGCUGCUGGACGGGCAGGAGCUGACGCCUCGCUGGACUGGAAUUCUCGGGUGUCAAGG: -1.52
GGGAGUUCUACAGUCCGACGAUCGUCCUGUGCUACACAUCGUAUGUACCGAAUCGGGGUUUUGGGGUUUUGGGGUUUUGGGAAAGUAUUAUGUUACGCCGUUCGGAUCUGCACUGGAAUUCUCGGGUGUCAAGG: -0.0631
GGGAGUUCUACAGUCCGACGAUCCUGUGCUACACAUCGUAUGUACCGAAUCGGGGAAAAAAAGGGGUUUUUUUGGGGUUUGGGGAAAGUAUUAUGUUACGCCGUUCGGAUCUGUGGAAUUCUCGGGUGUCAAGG: -0.157
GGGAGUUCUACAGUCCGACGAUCUGGCCCUGGUGACAUGCGGGGAGGAAGAGGUGGCCUCAUGGAUCGUGGUGGUCCCGGUGGAAUGUUCAGAGGUGGCCGUGGUGGAGACAGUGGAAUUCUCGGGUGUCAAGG: 0.184
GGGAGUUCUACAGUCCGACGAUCUCCUCAAGUCCUGUGCUACACAUCGUAUGUACCGAAUCGGCGGGCGGGCGGGAAAGUAUUAUGUUACGCCGUUCGGAUCUGCACUUCCAGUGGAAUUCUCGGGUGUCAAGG: 1.18

Set 4 — method: universal PBM; form: double-stranded DNA, one strand shown; sample: in vitro; concentration: 600 nM; reading: higher = stronger binding; measurement: E-score
Target: Sal-like protein 4, full length isoform A (SALL4, Homo sapiens, UniProt Q9UJQ4, residues 1-1053)
UniProt Q9UJQ4, sequence (whole entry, looked up): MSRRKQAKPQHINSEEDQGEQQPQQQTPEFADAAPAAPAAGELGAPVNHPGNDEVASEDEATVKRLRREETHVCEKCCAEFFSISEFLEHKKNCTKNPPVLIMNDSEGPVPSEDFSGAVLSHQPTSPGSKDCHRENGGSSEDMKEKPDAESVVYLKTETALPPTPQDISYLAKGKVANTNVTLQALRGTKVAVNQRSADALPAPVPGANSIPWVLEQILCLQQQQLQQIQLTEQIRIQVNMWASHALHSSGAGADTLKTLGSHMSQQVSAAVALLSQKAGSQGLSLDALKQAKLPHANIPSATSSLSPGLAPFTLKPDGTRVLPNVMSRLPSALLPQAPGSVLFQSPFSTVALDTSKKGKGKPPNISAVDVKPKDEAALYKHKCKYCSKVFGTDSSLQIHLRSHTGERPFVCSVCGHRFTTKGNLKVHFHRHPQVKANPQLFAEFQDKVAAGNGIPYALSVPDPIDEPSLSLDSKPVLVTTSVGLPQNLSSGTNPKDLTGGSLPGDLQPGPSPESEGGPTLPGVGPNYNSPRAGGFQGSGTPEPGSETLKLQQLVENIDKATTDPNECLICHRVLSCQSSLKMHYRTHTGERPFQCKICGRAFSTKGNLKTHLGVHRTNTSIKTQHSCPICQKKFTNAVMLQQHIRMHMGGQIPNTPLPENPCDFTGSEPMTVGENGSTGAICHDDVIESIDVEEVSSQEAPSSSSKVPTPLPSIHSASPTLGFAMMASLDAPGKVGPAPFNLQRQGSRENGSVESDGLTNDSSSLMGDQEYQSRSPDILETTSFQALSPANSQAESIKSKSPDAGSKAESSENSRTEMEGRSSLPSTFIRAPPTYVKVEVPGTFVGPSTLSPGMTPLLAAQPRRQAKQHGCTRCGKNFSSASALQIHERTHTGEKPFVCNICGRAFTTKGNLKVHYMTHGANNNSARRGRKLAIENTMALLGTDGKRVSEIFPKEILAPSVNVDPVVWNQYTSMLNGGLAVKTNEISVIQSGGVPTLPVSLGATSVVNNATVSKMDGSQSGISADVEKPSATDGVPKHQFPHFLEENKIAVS
Notes: 8-mer, flanks averaged, mean of replicates
CGATTGAG: -0.0837
AGCCATCC: -0.285
CCGTACAC: -0.165
AACCTGCT: -0.185
CCCCTGGA: -0.367
GGTTACAA: 0.23
ATGCCGGG: -0.277
CTCTCAGA: -0.0597
CTATCCGA: -0.0859
CGATCCAC: -0.174
ACTACACC: -0.0268
AAATTCAG: 0.181
AGATCATG: -0.0857
ATTAATAC: 0.392
CTAAGGAA: 0.00377
TAAAAGAA: 0.291
CCGCATGA: -0.0615
GCCATACC: -0.251
CATAAAGA: 0.303
AGGCAACG: -0.316
TCGCGGCA: -0.205
ACCGAGAT: 0.0246
CCAACTTC: -0.00193
GACTCACC: -0.11
ATCAAGTA: 0.0992

For quick reference, copied from above (set 4):
CTAAGGAA: 0.00377
TAAAAGAA: 0.291
CCGCATGA: -0.0615
GCCATACC: -0.251
CATAAAGA: 0.303
AGGCAACG: -0.316
TCGCGGCA: -0.205
